Measurements from different studies.
A part holds a random share of what one study measured. Substitutions count along the parent as printed.

Series 1 — technique: RNA Bind-n-Seq; molecule type: RNA; matrix: in vitro; tested at: 200 nM; notes: whole 134-nt RNA, ends assumed; with: 150 mM LiCl; relative to: input library; direction: higher = stronger binding; all molecules: 7-deaza-guanosine replaces G
Target: Ras GTPase-activating protein-binding protein 1, full length (G3BP1, Homo sapiens, UniProt Q13283)
Sequence of UniProt Q13283 (whole entry, looked up): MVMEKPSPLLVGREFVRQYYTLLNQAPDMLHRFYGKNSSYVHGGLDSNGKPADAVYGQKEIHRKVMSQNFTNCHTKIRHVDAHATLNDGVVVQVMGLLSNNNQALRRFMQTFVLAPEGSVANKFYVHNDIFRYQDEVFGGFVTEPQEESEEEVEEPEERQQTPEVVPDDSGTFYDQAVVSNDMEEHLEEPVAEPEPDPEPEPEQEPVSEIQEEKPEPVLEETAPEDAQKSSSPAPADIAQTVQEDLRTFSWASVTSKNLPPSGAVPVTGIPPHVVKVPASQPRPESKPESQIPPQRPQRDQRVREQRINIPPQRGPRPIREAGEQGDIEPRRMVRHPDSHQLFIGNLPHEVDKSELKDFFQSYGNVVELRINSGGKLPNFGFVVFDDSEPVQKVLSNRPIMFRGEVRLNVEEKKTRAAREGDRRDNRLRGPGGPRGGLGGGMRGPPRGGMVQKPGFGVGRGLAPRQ
| Sequence | log2 enrichment |
| --- | --- |
| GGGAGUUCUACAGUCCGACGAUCUGUGCUACACAUCGUAUGUACCGAAUCGGGGCCCCCCCGGGGCCCCCCCGGGCCCCCCCGGGGAAAGUAUUAUGUUACGCCGUUCGGAUCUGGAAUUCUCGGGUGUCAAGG | -0.663 |
| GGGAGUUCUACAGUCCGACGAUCCACAGACAACACGCACCCACACAGACACAGAGGGAAGGGGUUGGGAUGAAAACAGGGUGCACAGCAGGGCGGGGUAGGACCCCAGCCCCUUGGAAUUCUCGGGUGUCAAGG | 0.401 |
| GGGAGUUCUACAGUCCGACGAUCGUCCUGUGCUACACAUCGUAUGUACCGAAUCGGGAAAAAAAGGGAAAAAGGGUUUGGGAAAGUAUUAUGUUACGCCGUUCGGAUCUGCACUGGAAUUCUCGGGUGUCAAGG | -1.95 |
| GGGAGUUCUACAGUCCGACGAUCGUCCUGUGCUACACAUCGUAUGUACCGAAUCAAAUUUUUUUAAACCCAAACCCCCAAAAAAGUAUUAUGUUACGCCGUUCGGAUCUGCACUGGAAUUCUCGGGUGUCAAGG | 0.844 |
| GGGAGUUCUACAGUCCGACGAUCUUACCGACACCGUAGAACAGAGCAAGAGGAGGAUGAAGAGCUAUUAACAGAAAGCUCCAAAGCAACCAAUGUUUGCACUCGAUUUGAAGAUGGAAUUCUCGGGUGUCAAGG | -0.151 |
| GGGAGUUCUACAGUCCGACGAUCGUCAAGUGCUUCUGCUCCUGAUGUGGAUGACCCAGAGGCAUUCCCAGCUCUGGCUUAACUGGAUGCCAUAAGACAACCCUGGUUCCUUUGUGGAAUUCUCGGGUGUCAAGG | -0.957 |
| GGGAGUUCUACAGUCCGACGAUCCCUGUGCUACACAUCGUAUGUACCGAAUCGGGAAAAAAAGGGAAAAAAAGGGAAAAAAAGGAAAGUAUUAUGUUACGCCGUUCGGAUCUGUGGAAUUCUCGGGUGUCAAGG | 0.0479 |
| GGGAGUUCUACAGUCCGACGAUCCUGUGCUACACAUCGUAUGUACCGAAUCGGGGUUUUUUUGGGGUUUUUUUGGGGUUUGGGGAAAGUAUUAUGUUACGCCGUUCGGAUCUGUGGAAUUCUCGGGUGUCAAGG | 1.38 |

Series 2 — technique: RNA Bind-n-Seq; molecule type: RNA; matrix: in vitro; tested at: 100 nM; relative to: input RNA pool; direction: higher = stronger binding
Target: RING finger protein unkempt homolog, zinc fingers 1-6, SBP tag (UNK, Homo sapiens, UniProt Q9C0B0, residues 30-357)
Sequence of UniProt Q9C0B0 (30-357, looked up): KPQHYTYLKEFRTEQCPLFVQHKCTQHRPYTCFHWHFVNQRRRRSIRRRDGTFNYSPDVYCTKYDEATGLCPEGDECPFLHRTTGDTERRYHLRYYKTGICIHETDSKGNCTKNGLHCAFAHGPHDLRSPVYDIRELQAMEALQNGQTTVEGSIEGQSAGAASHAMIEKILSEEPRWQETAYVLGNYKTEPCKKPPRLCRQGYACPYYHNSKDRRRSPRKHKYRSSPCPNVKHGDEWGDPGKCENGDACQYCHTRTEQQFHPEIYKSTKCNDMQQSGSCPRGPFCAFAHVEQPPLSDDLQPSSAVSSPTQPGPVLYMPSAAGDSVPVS
Notes: RNA with constant flanks, vertebrate orthologous sites, ends assumed
| Sequence | bound/input enrichment [ratio] |
| --- | --- |
| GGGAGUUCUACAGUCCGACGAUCUUCCACACCACUGGGUUGAAAGAUAAAGAUGGAACAGCCAUUGUAGCUAGAAGGAGUCCAUUUUUGUUCCCAUUUGCGUCAUCAUCCCCAGACCAAGGUGGUAGCAGAUUUCUCCCUCCCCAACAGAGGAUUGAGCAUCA | 0.53 |
| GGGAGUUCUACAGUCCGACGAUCUCUCUCGUUUUAUAUGUCCAAAACUGGCUAUGACUUUUUAAAACAUUUGCUAGUUUUAAUUAGUUCUGCCCUCAUGAAGUAGCAUUAGAGUCUGUCACUAACAGAUACCUGUCUGUAUACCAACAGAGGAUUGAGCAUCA | 0.367 |
| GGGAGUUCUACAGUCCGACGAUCUAUUAGUGUCAUACCAGCAUAUUAACCUCUCGUCUGUGCACAGCUUCCAACGUUACCGUCUAGUUAGAUUUUUAUUUAAAAUAUGAAAAACUGCUUUUCCCAAGACGUUUUUUAAAAACACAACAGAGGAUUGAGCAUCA | 1.36 |
| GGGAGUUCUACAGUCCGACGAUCUUUAAUCAAUGAGGUAUUUAAAUGUCCACUGAACAAAUAAGAGUCUAUUUAUAAAGAGAUUUAUUUAACUCCUGCAGUGCGAGAGCAGUCAGUGUGGCAUGUCGGAAACUCCCUAACCCACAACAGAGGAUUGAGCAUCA | 0.192 |
| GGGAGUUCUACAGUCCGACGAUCCUCUCUUAGCGAUAGUAUUCCAUCUGUAGCAGAUUCCCACUCGAGUCACUUUUCUGAGUUCAGUUGCUCAGAUAUGGAGAGUAUGAAAACUUCCUGUAGCCACGGUUCCAGCGACUAUCACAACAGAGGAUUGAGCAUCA | 0.486 |
| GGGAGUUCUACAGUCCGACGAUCUUCAGGCACAACUGACUGGUUCACAGCAUUCCUUACAUAGUUAUCUAUCAAAUGCAAAUGUAGUUAAUUUUCAGGAAACAAGCAGGCAGUCAUCUUUAUCCUGUAGCCCAGUUGGAGAGUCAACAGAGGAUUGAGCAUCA | 1.57 |
| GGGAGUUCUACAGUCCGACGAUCUAAAGGAGAGACUCCUGUGAUUUUUAAUACUGCUAUUUGUUCUCUUUAGAUAGUCCAGUAUGGCAUUUUCAACAGAACUGGUUUAUUGACAGUUCUCACCUAAGUCCUCAUAAAGAAUCACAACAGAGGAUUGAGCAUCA | 0.16 |
| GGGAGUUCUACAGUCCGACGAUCUACUUAUUUCUUUCUUCCUGACUUUCUUUUUUCUUUCGUUUCUUUUUUCUUUUUUUUUGGUAGUUGUUGUUACCCACGCCAUUUUACGUCUCCUUCACUGAAGGGCUAGAGUUUUAACUUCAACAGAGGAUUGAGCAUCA | 2.14 |

Series 3 — technique: RNAcompete; molecule type: RNA; matrix: in vitro; tested at: 20 nM; notes: 7-mer, probes averaged, single round; relative to: mean of 7-mers; direction: higher = stronger binding
Target: PABPC1L2, full length, GST fusion (mouse, UniProt A0ABA7IW68)
Residues (chain): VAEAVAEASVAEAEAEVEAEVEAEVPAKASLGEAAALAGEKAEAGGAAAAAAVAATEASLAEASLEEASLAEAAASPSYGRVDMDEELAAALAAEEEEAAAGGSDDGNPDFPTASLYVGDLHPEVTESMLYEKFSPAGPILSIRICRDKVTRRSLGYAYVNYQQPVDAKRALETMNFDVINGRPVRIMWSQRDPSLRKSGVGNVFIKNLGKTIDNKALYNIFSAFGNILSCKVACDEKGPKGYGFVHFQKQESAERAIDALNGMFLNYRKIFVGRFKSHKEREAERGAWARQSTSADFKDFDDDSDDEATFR
| Sequence | 7-mer Z-score |
| --- | --- |
| AAUAGUC | 0.0732 |
| CUUCCUA | -0.325 |
| CAUGGGG | 0.249 |
| UGCUCGG | -0.191 |
| CUCUAGG | -0.106 |
| UCACGCU | -0.383 |
| GGAAAAU | 2.34 |
| GUCGACG | -0.182 |
| ACUAAUG | -0.171 |
| GCUGCAU | -0.124 |
| AGAAUGC | -0.0536 |
| CUAGGCA | -0.191 |
| UCUAUGC | -0.324 |
| GCUCCGU | -0.278 |
| UAGUGUC | -0.155 |
| UCCUCGG | -0.46 |
| ACGUGUA | -0.148 |
| AGGGUAU | 0.12 |
| UUUAGCU | -0.112 |
| CACCCUG | -0.345 |
| UUAAUUG | -0.231 |
| UUACGGA | 0.00798 |
| AAUAUAC | 0.379 |

Series 4 — target: CCNA2, cyclin fold, Cln2 fusion (human); technique: yeast growth competition, sequencing; matrix: yeast; notes: strong parent motif; relative to: not given; direction: higher = stronger binding
Starting sequence: E2F1 docking peptide (human); PPVKRRLDLETDH; partner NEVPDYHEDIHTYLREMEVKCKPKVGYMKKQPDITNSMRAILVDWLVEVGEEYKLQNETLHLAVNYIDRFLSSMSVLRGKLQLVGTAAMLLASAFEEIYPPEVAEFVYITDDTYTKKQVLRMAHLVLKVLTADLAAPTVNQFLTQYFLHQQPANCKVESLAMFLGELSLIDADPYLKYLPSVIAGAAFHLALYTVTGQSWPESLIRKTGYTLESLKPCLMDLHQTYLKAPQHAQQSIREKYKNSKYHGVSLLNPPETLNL
| Variant | normalised enrichment score |
| --- | --- |
| PPVDRRLDLETDH [K4D] | 0.4 |
| PPVKRRLDLETDP [H13P] | 5.16 |
| PPVKRLLDLETDH [R6L] | 0.968 |
| PPVKRFLDLETDH [R6F] | 1.88 |
| FPVKRRLDLETDH [P1F] | 4.75 |
| PPVKRRFDLETDH [L7F] | -0.341 |
| PPVKRRSDLETDH [L7S] | -0.171 |
| PPVKRNLDLETDH [R6N] | 0.444 |
| PPVKGRLDLETDH [R5G] | 0.522 |
| PPVKRRLDLWTDH [E10W] | 5.15 |
| PLVKRRLDLETDH [P2L] | 2.6 |
| PPYKRRLDLETDH [V3Y] | 0.67 |
| PPVKRSLDLETDH [R6S] | 1.44 |
| PPVKRRNDLETDH [L7N] | 0.448 |
| PPVKYRLDLETDH [R5Y] | 0.557 |
| PPVKRRLDLMTDH [E10M] | 3.62 |
| PKVKRRLDLETDH [P2K] | 4.66 |
| PPVKRRLDLETWH [D12W] | 4.23 |

Repeated from above (series 2):
| Sequence | bound/input enrichment [ratio] |
| --- | --- |
| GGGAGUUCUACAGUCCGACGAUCUCUCUCGUUUUAUAUGUCCAAAACUGGCUAUGACUUUUUAAAACAUUUGCUAGUUUUAAUUAGUUCUGCCCUCAUGAAGUAGCAUUAGAGUCUGUCACUAACAGAUACCUGUCUGUAUACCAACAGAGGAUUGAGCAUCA | 0.367 |
| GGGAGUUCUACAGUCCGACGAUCUUUAAUCAAUGAGGUAUUUAAAUGUCCACUGAACAAAUAAGAGUCUAUUUAUAAAGAGAUUUAUUUAACUCCUGCAGUGCGAGAGCAGUCAGUGUGGCAUGUCGGAAACUCCCUAACCCACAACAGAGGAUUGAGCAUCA | 0.192 |
| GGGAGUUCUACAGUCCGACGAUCUUCAGGCACAACUGACUGGUUCACAGCAUUCCUUACAUAGUUAUCUAUCAAAUGCAAAUGUAGUUAAUUUUCAGGAAACAAGCAGGCAGUCAUCUUUAUCCUGUAGCCCAGUUGGAGAGUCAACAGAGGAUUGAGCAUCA | 1.57 |
| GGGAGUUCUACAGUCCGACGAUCUAUUAGUGUCAUACCAGCAUAUUAACCUCUCGUCUGUGCACAGCUUCCAACGUUACCGUCUAGUUAGAUUUUUAUUUAAAAUAUGAAAAACUGCUUUUCCCAAGACGUUUUUUAAAAACACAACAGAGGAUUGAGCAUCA | 1.36 |
| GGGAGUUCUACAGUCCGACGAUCUUCCACACCACUGGGUUGAAAGAUAAAGAUGGAACAGCCAUUGUAGCUAGAAGGAGUCCAUUUUUGUUCCCAUUUGCGUCAUCAUCCCCAGACCAAGGUGGUAGCAGAUUUCUCCCUCCCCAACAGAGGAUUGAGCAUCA | 0.53 |
| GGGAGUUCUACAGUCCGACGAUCUAAAGGAGAGACUCCUGUGAUUUUUAAUACUGCUAUUUGUUCUCUUUAGAUAGUCCAGUAUGGCAUUUUCAACAGAACUGGUUUAUUGACAGUUCUCACCUAAGUCCUCAUAAAGAAUCACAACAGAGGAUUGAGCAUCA | 0.16 |
| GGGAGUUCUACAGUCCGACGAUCCUCUCUUAGCGAUAGUAUUCCAUCUGUAGCAGAUUCCCACUCGAGUCACUUUUCUGAGUUCAGUUGCUCAGAUAUGGAGAGUAUGAAAACUUCCUGUAGCCACGGUUCCAGCGACUAUCACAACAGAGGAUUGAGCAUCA | 0.486 |
